# Measurements collected from several papers.
# Numbered parts are unrelated; each lists some results of a single study. Positions count from the first letter of the parent shown.

# Block 1
# Target: RING finger protein unkempt homolog, zinc fingers 1-6, GST-SBP tag (UNK, Homo sapiens, UniProt Q9C0B0, residues 30-357)
# Technique: RNA Bind-n-Seq
# Form: RNA
# Medium: in vitro
# Concentration: not given
# Notes: RNA with constant flanks, human and mouse sites, ends assumed
# Baseline: input RNA pool
# Direction: higher = stronger binding
# Residues (chain): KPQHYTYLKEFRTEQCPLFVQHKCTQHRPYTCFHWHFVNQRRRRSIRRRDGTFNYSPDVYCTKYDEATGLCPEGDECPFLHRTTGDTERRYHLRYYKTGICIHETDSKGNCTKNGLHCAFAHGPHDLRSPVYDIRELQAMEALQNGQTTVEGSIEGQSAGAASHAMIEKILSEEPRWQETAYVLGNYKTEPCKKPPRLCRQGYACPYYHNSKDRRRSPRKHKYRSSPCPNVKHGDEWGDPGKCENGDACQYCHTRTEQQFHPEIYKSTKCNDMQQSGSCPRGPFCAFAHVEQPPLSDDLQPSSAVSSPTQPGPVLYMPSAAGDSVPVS
Sequence,bound/input enrichment [ratio]
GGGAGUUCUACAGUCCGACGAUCUCUGUGAAAACUUCAGUCACAACAUCAAUUUCAGAGCCUUGGACCCAAAGGAGUUUCUAUAGGUCAUCUAAUGCUUCAGAUAAAGAUAGUGAUUUACAGAAAACAUUUUUUUCGUCUUCUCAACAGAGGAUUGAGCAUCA,0.29
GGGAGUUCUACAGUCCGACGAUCCCAGAAGUCGAGUCCCUGCAGGACUACAAGAACACCUUUCCCAAGUGGAAGCCGGGGAGCCUCGCAUCCCACGUCAAGAACCUGGACGAGAACGGCUUGGAUUUGCUCUCAAAAAUGCUACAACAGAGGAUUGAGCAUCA,0.183
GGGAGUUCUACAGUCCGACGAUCGCUCUUGCCUGCAAGUUUAGCUUGUGUUAAGGCAUUUGGGGGGACCAUUUAACUUACUGCUAGUUUGGGAUGUCUUUGUGAGAGUAGGGUUGGCACCAAUGCAGUAUGGAAGGCUAGGAGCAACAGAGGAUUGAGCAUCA,0.855
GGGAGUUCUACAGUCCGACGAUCUUACAGUCAUUGAUGGACUCUAUUUUUUUAUUAUUACUUGGACCUUGGUCGUUUUUAUACUAGCAAAAAAAUGUCUUGUUUUAAUUUGUGUUUUUUGGGGGGGCGGGUGGGCGGGCGGGACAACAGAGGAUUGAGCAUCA,5.17
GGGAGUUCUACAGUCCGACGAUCGAAGAUGUUGCCAUGGCCAAAAGAGAAAUCCUCUCGGCUGCAGAGCACUUUUCUAUGAUUCGUGCAUCUCGAAACAAAAAUGGUCCUGCACUAGGAGGGUUAUCGUGUAGUCCUAAUCUGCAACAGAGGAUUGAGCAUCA,0.163
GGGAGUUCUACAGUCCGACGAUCUAUAUAAUGGACAGCUAACGGAACAAUAUAAUCACCACAAUGCAGCUAGGAUAGUGUUGCGGCUAUAAUUUUGUGUUUUUUUUUUUUAAUUGUCUAGUCUUAAAUUUGUACAUCUUGUAUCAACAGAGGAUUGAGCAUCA,24
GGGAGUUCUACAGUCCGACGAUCUCAAUAACCUUUUCAGAUGAAAACGAUGAUCAGGAUUUUGAAUUAUGGGAUGAUGUAGGAUUAAACAUUCCAAAACCUCCAGACUUAUUGCAACUCUACCGGGAUUUUGGAAAUCAUCAACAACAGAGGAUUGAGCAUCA,0.0768
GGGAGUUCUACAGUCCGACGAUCCAUGUAGUUUGUUUUUAAUUUCAAGCAAAAUCUUACUGUACUUGAAUGUGCCCUGUUUUGUUAGCACACCUAGACUUGCUGUAACUGUACUCAUGUCCCAGUAUGUACGUUCUUUCUAUGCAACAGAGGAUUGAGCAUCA,9.46

# Block 2
# Target: UBE2D2 UBC core domain (UniProt P62837)
# Chain of UniProt P62837 (whole entry, looked up): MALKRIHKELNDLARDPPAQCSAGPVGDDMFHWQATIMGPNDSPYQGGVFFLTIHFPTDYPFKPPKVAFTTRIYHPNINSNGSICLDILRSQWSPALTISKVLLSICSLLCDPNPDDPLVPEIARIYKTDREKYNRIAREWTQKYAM
# Technique: yeast two-hybrid
# Medium: yeast
# Notes: mostly zero background
# Baseline: not given
# Direction: higher = stronger interaction
# B1: RBCK1 RING domain (UniProt Q9BYM8); chain SLVLNTEPAECPVCYSVLAPGEAVVLRECLHTFCRECLQGTIRNSQEAEVSCPFIDNTYSCSGKLLEREIK
# B2: RNF121 RING domain (UniProt Q9H920); chain MPTKHLSDSVCAVCGQQIFVDVSEEGIIENTYRLSCNHVFHEFCIRGWCIVGKKQTCPYCKEKVDLKRMFS
Molecule,lacZ reporter activity
YQNEVDDDLVCHICLQPLLQPLDTPCGHTFCYKCLRNFLQEKDFCPLDRKRLHFKLCKK (LNX2 RING domain (UniProt Q8N448)),0
GSDDEEIPFKCFICRQSFQNPVVTKCRHYFCESCALQHFRTTPRCYVCDQQTNGVFNPA (RNF113A RING domain (UniProt O15541)),0
AVPSGLEENLCKICMDSPIDCVLLECGHMVTCTKCGKRMNECPICRQYVIRAVHVF (RFFL RING domain (UniProt Q8WZ73)),0
B1 (RBCK1 RING domain),0
KLRKLKEAMLCMVCCEEEINSTFCPCGHTVCCESCAAQLQSCPVCRSRVEHVQHVY (MYLIP RING domain (UniProt Q8WY64)),0
B2 (RNF121 RING domain),0
FDGDVDPDLKCALCHKVLEDPLTTPCGHVFCAGCVLPWVVQEGSCPARCRGRLSAKELN (PDZRN3 RING domain (UniProt Q9UPQ7)),0
AMYLQENGIDCPKCKFSYALARGGCMHFHCTQCRHQFCSGCYNAFYAKNKC (RNF31 RING domain (UniProt Q96EP0)),0

# Block 3
# Target: CCNE2, cyclin fold, Cln2 fusion (human)
# Technique: yeast growth competition, sequencing
# Medium: yeast
# Notes: strong parent motif
# Baseline: not given
# Direction: higher = stronger binding
# Starting sequence: viral docking peptide; KGVKRKLFAEDSS
Change,normalised enrichment score
KGVKRKLFAEDAS [S12A],6.92
KGRKRKLFAEDSS [V3R],0.432
KGVKRKLNAEDSS [F8N],0.0922
KGVKRKLFAEDMS [S12M],6.56

# Block 4
# Target: FOSL1, bZIP domain (human)
# Technique: DHFR protein complementation
# Medium: yeast
# Notes: single substitutions, most at no-binding floor
# Baseline: wild-type JUN-FOS pair
# Direction: higher = stronger binding
# Starting sequence: JUN, bZIP domain (human); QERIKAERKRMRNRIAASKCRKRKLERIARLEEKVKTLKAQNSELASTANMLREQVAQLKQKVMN; partner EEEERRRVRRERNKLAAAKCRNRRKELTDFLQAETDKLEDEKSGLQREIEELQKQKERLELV
Change,binding fitness
E33P,-1.49 natural log
T37A,-0.305 natural log
R53D,-1.45 natural log
A29W,-0.668 natural log
K34F,-1.16 natural log
S43T,-0.322 natural log
A57W,-0.685 natural log
E32G,-0.612 natural log

# For quick reference, copied from above (block 4):
Change,binding fitness
K34F,-1.16 natural log
S43T,-0.322 natural log
